# Measured values pooled from the literature.
# Numbered parts are unrelated; each lists some results of a single study. Positions count from the first letter of the parent shown.

# Set 1
# Target: Ras GTPase-activating protein-binding protein 1, full length (G3BP1, Homo sapiens, UniProt Q13283)
# Sequence of UniProt Q13283 (whole entry, looked up): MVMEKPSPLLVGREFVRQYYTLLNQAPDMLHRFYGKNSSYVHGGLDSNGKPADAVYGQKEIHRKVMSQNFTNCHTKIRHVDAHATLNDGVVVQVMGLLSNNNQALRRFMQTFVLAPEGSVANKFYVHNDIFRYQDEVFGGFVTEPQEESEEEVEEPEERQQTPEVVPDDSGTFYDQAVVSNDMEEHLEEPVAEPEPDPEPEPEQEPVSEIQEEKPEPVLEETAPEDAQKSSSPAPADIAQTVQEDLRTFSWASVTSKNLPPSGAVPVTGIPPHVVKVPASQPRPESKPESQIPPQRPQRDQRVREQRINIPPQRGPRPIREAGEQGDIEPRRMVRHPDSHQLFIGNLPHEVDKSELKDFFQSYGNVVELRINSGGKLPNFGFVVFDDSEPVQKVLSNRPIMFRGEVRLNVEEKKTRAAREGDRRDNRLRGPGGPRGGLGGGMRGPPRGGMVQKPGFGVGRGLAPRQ
# Method: RNA Bind-n-Seq
# Form: RNA
# Medium: in vitro
# Tested at: 200 nM
# Notes: whole 134-nt RNA, ends assumed
# With: 150 mM KCl
# Relative to: input library
# Direction: higher = stronger binding
# All sequences stand within: GGGAGUUCUACAGUCCGACGAUC … UGGAAUUCUCGGGUGUCAAGG
Oligonucleotide,log2 enrichment
UCCUGUGCUACACAUCGUAUGUACCGAAUCGGGCCCCCCGGCCCCCCGGGGCCCCCCGGGAAAGUAUUAUGUUACGCCGUUCGGAUCUGC,0.0544
CUGUGCUACACAUCGUAUGUACCGAAUCAAAUUUUUUUAAAUUUUUUUAAACCCCCCCAAAAAAGUAUUAUGUUACGCCGUUCGGAUCUG,-0.207
UGGGAGGUGGAUUUUGUUUAUUUUUUUAGCUCAUUUCCAGGGGUGGGAAUUUUUUUUAAAUAUGUGUCAUGAAUAAAGUUGUUUUUGAAA,0.142
UCCUGUGCUACACAUCGUAUGUACCGAAUCGGGAAAGGGAAAAAAAGGGAAAAAAAGGGAAAGUAUUAUGUUACGCCGUUCGGAUCUGCA,-0.421
ACCAUGCAGGUGGGCAUCUUUGGGAAGUGGGGCAAGGGGGGGAUAGGGAGGGGGGUAACACUUUGGGUACAGGUGGUCCCAGGUCGUUUC,1.2

# Set 2
# Target: CCNA2, cyclin fold, Cln2 fusion (human)
# Method: yeast growth competition, sequencing
# Medium: yeast
# Notes: strong parent motif
# Relative to: not given
# Direction: higher = stronger binding
# Starting sequence: E2F1 docking peptide (human); PPVKRRLDFETDH; partner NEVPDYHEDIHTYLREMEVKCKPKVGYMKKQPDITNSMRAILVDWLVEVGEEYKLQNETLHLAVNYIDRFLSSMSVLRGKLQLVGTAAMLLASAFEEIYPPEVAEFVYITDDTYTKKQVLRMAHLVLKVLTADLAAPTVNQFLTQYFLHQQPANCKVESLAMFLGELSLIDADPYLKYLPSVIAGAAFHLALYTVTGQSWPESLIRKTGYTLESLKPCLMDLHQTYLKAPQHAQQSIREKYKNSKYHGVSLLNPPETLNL
Variant,normalised enrichment score
R6I,4.03
D8T,5.8
E10T,5.91
R5M,3.14
T11K,5.96
K4V,5.31
V3T,6.06

# Set 3
# Target: Interferon regulatory factor 5, full length, phosphomimetic (IRF5, Homo sapiens, UniProt Q13568-2, residues 1-514, S451D/S453D/S456D/S462D)
# Method: protein-binding microarray
# Form: double-stranded DNA, one strand shown
# Medium: in vitro
# Tested at: 940 nM top
# Notes: 60-bp whole probe
# With: salmon DNA 0.4 mg/ml
# Relative to: random background probes
# Direction: higher = stronger binding
Oligonucleotide,fitted relative affinity [z-score]
GCCTAGCACTCATATATCCATTATAGACTGTGCTAGGTCTTGATTCGCTTGACGCTGCTG,0.436
GCCTAGCACTTAGGTTTCCTTAGCCTTTAGTGCTAGGTCTTGATTCGCTTGACGCTGCTG,1.1
GCCTAGCACTTAGGTTACGGGTTTCGGTTAGTGCTAGTCTTGATTCGCTTGACGCTGCTG,5.67
GCCTAGCACAACGATTTCAGACTGGAGACGTGCTAGGTCTTGATTCGCTTGACGCTGCTG,-0.326

# Further values, each from its own experiment
Molecule,target,assay,test system,conditions,scale,measurement,value
"PhoQ, residues 284 288 289 292 302 303 TNASYF","PhoP, residues 12 14 15 18 19 SGWQI (Escherichia coli, UniProt P23836)","Sort-seq, refers to: YFP reporter",E. coli,"PhoQ-PhoP variant library, with: 10 µM Mg2+","relative to: high Mg2+ state, higher = stronger signaling",fold induction,0.923

# For quick reference, copied from above (set 1):
Oligonucleotide,log2 enrichment
ACCAUGCAGGUGGGCAUCUUUGGGAAGUGGGGCAAGGGGGGGAUAGGGAGGGGGGUAACACUUUGGGUACAGGUGGUCCCAGGUCGUUUC,1.2
